Published values collected from several papers.
± marks the error that the study gave.
FGFR3 extracellular domain: Fibroblast growth factor receptor 3, extracellular domain (FGFR3, Homo sapiens, UniProt P22607)
UniProt P22607, sequence (whole entry, looked up): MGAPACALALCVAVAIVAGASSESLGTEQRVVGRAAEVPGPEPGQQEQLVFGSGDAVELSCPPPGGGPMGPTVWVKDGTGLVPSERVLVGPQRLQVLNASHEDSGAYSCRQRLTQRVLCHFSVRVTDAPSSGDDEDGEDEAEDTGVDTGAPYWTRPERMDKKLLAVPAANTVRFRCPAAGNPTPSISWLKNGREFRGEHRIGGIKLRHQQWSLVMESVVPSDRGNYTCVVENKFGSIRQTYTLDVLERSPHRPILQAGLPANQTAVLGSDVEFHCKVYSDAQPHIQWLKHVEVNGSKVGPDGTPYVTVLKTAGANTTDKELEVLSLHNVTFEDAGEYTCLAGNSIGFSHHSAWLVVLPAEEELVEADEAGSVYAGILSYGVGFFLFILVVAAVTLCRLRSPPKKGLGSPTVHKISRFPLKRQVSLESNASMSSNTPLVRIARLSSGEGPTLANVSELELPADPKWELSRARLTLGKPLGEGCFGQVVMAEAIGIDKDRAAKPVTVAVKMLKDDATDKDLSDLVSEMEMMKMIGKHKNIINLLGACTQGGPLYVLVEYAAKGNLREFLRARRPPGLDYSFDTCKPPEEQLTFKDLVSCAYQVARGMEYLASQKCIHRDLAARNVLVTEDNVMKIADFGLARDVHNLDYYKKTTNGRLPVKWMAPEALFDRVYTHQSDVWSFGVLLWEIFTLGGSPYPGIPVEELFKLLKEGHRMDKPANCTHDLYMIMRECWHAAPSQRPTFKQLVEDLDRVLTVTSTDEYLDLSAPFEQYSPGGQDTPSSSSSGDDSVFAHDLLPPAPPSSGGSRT
FGFR3: Fibroblast growth factor receptor 3 (FGFR3, Homo sapiens, UniProt P22607)

CSCC[C@H](NC(C)=O)C(=O)N[C@@H](Cc1ccccc1)C(=O)N[C@H](C(=O)NCC(=O)N[C@@H](Cc1c[nH]cn1)C(=O)N[C@H]1CSCc2cc3cc(c2)CSC[C@@H](C(=O)N[C@H](C(=O)N[C@@H](CCCNC(=N)N)C(=O)N[C@@H](Cc2ccc(O)cc2)C(=O)N[C@@H](Cc2ccc(O)cc2)C(=O)NCC(=O)N[C@@H](CO)C(=O)NCC(=O)N[C@@H](CO)C(=O)NCC(=O)N[C@@H](CO)C(=O)N[C@@H](CC(=O)O)C(=O)N[C@@H](Cc2ccc(O)cc2)C(=O)N[C@@H](CCCCN)C(=O)N[C@@H](CC(=O)O)C(=O)N[C@@H](CC(=O)O)C(=O)N[C@@H](CC(=O)O)C(=O)N[C@@H](CC(=O)O)C(=O)N[C@@H](CCCCN)C(=O)N[C@@H](CCCCN=[N+]=[N-])C(N)=O)C(C)C)NC(=O)[C@H](CSC3)NC(=O)CNC(=O)[C@H](CC(C)C)NC(=O)[C@H]([C@@H](C)O)NC1=O)[C@@H](C)O
BLI response (FGFR3 extracellular domain; binding, biolayer interferometry; concentration not given): 0.0633 RU

CC#CC(=O)N1CCC[C@H]1c1nc(-c2ccc(C(=O)Nc3ccccn3)cc2)c2c(N)nccn12
remaining activity (FGFR3; kinase activity, inhibitor, HotSpot radiometric; 100 nM, added: ATP 10 µM): 93 ± 0.3%

c1cnc2ccc(Nc3nc(NC4CC4)c4nc[nH]c4n3)cc2c1
remaining activity (FGFR3; kinase activity, inhibitor, SelectScreen kinase profiling; 1 µM; baseline: control): 61%

[2H]c1cc(C)c(NC(=O)c2cnc(Nc3cc(N4CCCCC4)nc(C)n3)s2)c(Cl)c1
inhibition (FGFR3; 0.01 µM): < 30%

CC[C@H](C)[C@H](NC(=O)[C@@H]1CSCc2cc3cc(c2)CSC[C@H](NC(=O)[C@H](C(C)C)NC(=O)CNC(=O)[C@H](CCCCN)NC(=O)[C@@H](NC(=O)[C@H](CCSC)NC(C)=O)CSC3)C(=O)N2CCC[C@H]2C(=O)N[C@@H](Cc2ccccc2)C(=O)N[C@@H](CO)C(=O)N[C@@H](C(C)C)C(=O)N1)C(=O)N[C@@H](C)C(=O)N[C@@H](CCCNC(=N)N)C(=O)N[C@@H](CC(C)C)C(=O)NCC(=O)N[C@@H](CO)C(=O)NCC(=O)N[C@@H](CO)C(=O)NCC(=O)N[C@@H](CO)C(=O)N[C@@H](CC(=O)O)C(=O)N[C@@H](Cc1ccc(O)cc1)C(=O)N[C@@H](CCCCN)C(=O)N[C@@H](CC(=O)O)C(=O)N[C@@H](CC(=O)O)C(=O)N[C@@H](CC(=O)O)C(=O)N[C@@H](CC(=O)O)C(=O)N[C@@H](CCCCN)C(=O)N[C@@H](CCCCN=[N+]=[N-])C(N)=O
BLI response (FGFR3 extracellular domain; binding, biolayer interferometry; concentration not given): 0.0328 RU

C=CC(=O)N1CCC(COCC(=O)N2CCN(c3nc(-c4cnc(N)nc4C(F)F)nc(N4CCOC[C@@H]4C)n3)CC2)CC1
remaining binding (FGFR3; KINOMEscan; 1 µM): 100%

Cc1cc(Nc2cc(N3CCN(C)CC3)nc(Sc3ccc(NC(=O)C4CC4)cc3)n2)[nH]n1
remaining activity (FGFR3; kinase activity, KinaseProfiler; 0.03 µM, species human; baseline: control): 92%

COc1ccc(F)cc1C(=O)NCc1ccc(-c2nn([C@@H](C)C(F)(F)F)c(N)c2C(N)=O)cc1
remaining activity (FGFR3; kinase activity, inhibitor, HotSpot radiometric; 1000 nM, added: ATP at Km): 97.6 ± 0.8%

COc1cc(F)ccc1-c1ncnc(Nc2cccc(C[S@](C)(=N)=O)c2)n1
remaining activity (FGFR3; kinase activity; 10 µM, added: 10 µM ATP): 83%

A few entries again:
COc1cc(F)ccc1-c1ncnc(Nc2cccc(C[S@](C)(=N)=O)c2)n1
remaining activity (FGFR3; kinase activity; 10 µM, added: 10 µM ATP): 83%
